Measured values from different studies.
Parts stem from different laboratories: compare values within a part only.
UniProt P10721, sequence (whole entry, looked up): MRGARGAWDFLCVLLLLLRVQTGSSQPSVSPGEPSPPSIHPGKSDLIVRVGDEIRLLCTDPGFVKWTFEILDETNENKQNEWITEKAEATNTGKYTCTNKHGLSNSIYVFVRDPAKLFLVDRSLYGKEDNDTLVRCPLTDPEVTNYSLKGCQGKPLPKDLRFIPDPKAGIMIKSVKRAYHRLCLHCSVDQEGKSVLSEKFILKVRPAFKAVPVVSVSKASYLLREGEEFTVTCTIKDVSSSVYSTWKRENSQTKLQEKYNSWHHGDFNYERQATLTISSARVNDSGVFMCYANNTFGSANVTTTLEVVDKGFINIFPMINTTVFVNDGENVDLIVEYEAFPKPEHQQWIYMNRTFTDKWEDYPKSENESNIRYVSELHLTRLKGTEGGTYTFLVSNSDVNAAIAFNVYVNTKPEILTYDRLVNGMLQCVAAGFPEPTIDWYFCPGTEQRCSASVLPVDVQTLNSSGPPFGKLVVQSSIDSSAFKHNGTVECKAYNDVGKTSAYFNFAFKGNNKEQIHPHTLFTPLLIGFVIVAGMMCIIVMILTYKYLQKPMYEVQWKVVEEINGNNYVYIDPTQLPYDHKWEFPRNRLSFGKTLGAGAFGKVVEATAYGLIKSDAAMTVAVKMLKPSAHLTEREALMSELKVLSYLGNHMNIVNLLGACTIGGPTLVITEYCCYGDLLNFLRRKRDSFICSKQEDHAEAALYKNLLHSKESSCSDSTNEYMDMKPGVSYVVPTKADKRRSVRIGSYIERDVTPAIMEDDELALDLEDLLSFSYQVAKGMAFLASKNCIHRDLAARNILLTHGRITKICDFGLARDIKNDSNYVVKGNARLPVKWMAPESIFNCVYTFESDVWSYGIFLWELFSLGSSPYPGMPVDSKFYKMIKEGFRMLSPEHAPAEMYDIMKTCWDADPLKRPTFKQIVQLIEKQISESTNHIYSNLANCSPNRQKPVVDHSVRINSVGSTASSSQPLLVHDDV

Series 1
Target: Interferon regulatory factor 3, full length, phosphomimetic (IRF3, Homo sapiens, UniProt Q14653, residues 1-427, S386D/S396D/S398D/S402D/T404D/S405D)
UniProt Q14653, sequence (whole entry, unmodified, looked up): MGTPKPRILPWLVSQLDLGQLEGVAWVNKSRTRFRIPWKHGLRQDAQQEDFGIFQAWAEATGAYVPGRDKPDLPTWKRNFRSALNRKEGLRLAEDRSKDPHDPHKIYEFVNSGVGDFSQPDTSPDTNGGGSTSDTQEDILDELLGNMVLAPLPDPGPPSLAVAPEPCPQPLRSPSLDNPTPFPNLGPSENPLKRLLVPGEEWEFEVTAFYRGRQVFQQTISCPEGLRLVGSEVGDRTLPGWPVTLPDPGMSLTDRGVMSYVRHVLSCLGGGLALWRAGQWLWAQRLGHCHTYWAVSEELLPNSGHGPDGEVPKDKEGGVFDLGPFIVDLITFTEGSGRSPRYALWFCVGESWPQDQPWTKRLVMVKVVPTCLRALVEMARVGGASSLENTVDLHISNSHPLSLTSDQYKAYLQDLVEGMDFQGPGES
Method: protein-binding microarray
Molecule type: double-stranded DNA, one strand shown
Sample: in vitro
Concentration: 2540 nM top
Setting: 60-bp whole probe
With: salmon DNA 0.4 mg/ml
Baseline: random background probes
Reading: higher = stronger binding
Shared flanks, not repeated: GCCTAGCAC … GTCTTGATTCGCTTGACGCTGCTG
| Strand | fitted relative affinity [z-score] |
| --- | --- |
| TCAATTATATATTTATGACTGTGCTAG | 0.396 |
| GACGATCTCAGTTTCGCGACGTGCTAG | 1.79 |
| GACGGTTCCCTTTTCCTTACGTGCTAG | 6.02 |
| TCATATATTTGCTTCAGACTGTGCTAG | 0.413 |
| GACGGTACCCTTCTCCTGACGTGCTAG | 5.13 |
| GACGGTATGGGGTATCGGGACGTGCTA | -0.229 |
| TGTTCTTTTCTGTTGTCTGTGTGCTAG | 2.86 |
| GAAGTAATTTCAAACCACAGGTGCTAG | -0.0565 |

Series 2
Target: TAR DNA-binding protein 43, full length, His tag (TARDBP, Homo sapiens, UniProt Q13148, residues 1-414)
Method: RNA Bind-n-Seq
Molecule type: RNA
Sample: in vitro
Concentration: 20 nM
Setting: 6-mer, flanks averaged, single round
With: 150 mM LiCl
Baseline: input library
Reading: higher = stronger binding
| Strand | 6-mer enrichment (R) |
| --- | --- |
| CGAAAC | 0.77 |
| AGCUCG | 0.83 |
| GGACAA | 0.938 |
| CAUGCU | 0.895 |
| UUUGGC | 1.06 |
| UCCAAA | 0.814 |
| CGUACC | 0.861 |
| CUAAUU | 0.957 |

Further values, each from its own experiment
| Molecule | target | assay | system | conditions | scale | measurement | value |
| --- | --- | --- | --- | --- | --- | --- | --- |
| CN1CCN(c2ccc3nc(-c4c(N)c5c(F)cccc5[nH]c4=O)[nH]c3c2)CC1 | KIT (Homo sapiens, UniProt P10721) | enzyme activity, inhibitor |  | 0.5 µM | baseline: control | remaining activity | 9.89% |
| PhoQ, residues 284 288 289 292 302 303 ALAMYF | PhoP, residues 12 14 15 18 19 HEGLL (Escherichia coli, UniProt P23836) | Sort-seq, item: YFP reporter | E. coli | PhoQ-PhoP variant library, with: 10 µM Mg2+ | baseline: high Mg2+ state, higher = stronger signaling | fold induction | 0.728 |

A few entries again (further values, each from its own experiment):
| Molecule | target | assay | system | conditions | scale | measurement | value |
| --- | --- | --- | --- | --- | --- | --- | --- |
| PhoQ, residues 284 288 289 292 302 303 ALAMYF | PhoP, residues 12 14 15 18 19 HEGLL (Escherichia coli, UniProt P23836) | Sort-seq, item: YFP reporter | E. coli | PhoQ-PhoP variant library, with: 10 µM Mg2+ | baseline: high Mg2+ state, higher = stronger signaling | fold induction | 0.728 |
